Measurements of several laboratories.
Parts stem from different laboratories: compare values within a part only.

Study 1 — method: RNA Bind-n-Seq; molecule type: RNA; sample: in vitro; tested at: 200 nM; notes: whole 134-nt RNA, ends assumed; with: 150 mM LiCl; reference: input library; reading: higher = stronger binding; library: 7-deaza-guanosine replaces G
Target: Fragile X messenger ribonucleoprotein 1, C-terminal low-complexity region (Fmr1, Mus musculus, UniProt P35922)
Sequence	log2 enrichment
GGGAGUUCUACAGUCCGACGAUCUCAAGUCCUGUGCUACACAUCGUAUGUACCGAAUCGGUUUUUUUGGUUUGGUGGAAAGUAUUAUGUUACGCCGUUCGGAUCUGCACUUCCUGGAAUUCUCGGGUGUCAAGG	-1.62
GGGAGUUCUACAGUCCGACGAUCUCCUGUGCUACACAUCGUAUGUACCGAAUCAAACCCAAAUUUUUUUAAAUUUUUUUAAAAAAGUAUUAUGUUACGCCGUUCGGAUCUGCAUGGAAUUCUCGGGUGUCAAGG	-1.63
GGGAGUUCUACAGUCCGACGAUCUCAAGUCCUGUGCUACACAUCGUAUGUACCGAAUCGGUUUGGGGUUUGGGUUUGGAAAGUAUUAUGUUACGCCGUUCGGAUCUGCACUUCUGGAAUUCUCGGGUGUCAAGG	-1.45
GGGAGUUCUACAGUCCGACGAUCAGUCCUGUGCUACACAUCGUAUGUACCGAAUCGGAAAAAAAGGAAAAAAAGGAAAGGAAAGUAUUAUGUUACGCCGUUCGGAUCUGCACUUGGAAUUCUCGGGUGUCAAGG	-1.98
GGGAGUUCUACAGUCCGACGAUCAGUCCUGUGCUACACAUCGUAUGUACCGAAUCGGGGAAAAGGGAAAAGGGAAAAGGGGAAAGUAUUAUGUUACGCCGUUCGGAUCUGCACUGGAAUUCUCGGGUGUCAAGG	0.116
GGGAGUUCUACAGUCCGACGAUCAAGUCCUGUGCUACACAUCGUAUGUACCGAAUCGGGUUUGGGAAAGGGAAAAAGGGAAAGUAUUAUGUUACGCCGUUCGGAUCUGCACUUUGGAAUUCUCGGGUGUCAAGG	-0.353
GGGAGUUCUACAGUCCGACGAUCGCAGGAAGUAAAAACAAAUGGAAAUGCUUCGGAUAGUGGCAGGGGUGGGGGUUGCUAAGGAAAGGUUGGGAUGGGAGUGGGUAAAGAGUUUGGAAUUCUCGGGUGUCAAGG	1.26
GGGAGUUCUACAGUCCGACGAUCUUGUUUAUUCUGUGUCUUUUGCCUCCUUUCCUACAGAUGUCCGGCAGGAUAAUGCUGCUGGCAGAGCUGGCUCCAGUAGCCUUACACAGGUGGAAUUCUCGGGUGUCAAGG	0.992
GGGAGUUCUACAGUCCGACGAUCUAACUUUAGAGGAGGAUCUGAUGGAUAUGGCAGUGGACGUGGAUUUGGGGAUGGCUAUAAUGGGUAUGGAGGAGGACCAGGAGGUGGCAAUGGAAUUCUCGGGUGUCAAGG	0.741
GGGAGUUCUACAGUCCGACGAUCCAAGUCCUGUGCUACACAUCGUAUGUACCGAAUCGGGUGGGAAAGGGUUUUUGGGAAAGUAUUAUGUUACGCCGUUCGGAUCUGCACUUCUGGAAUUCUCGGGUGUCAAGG	-1.41
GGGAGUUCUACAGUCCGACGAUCUCAAGUCCUGUGCUACACAUCGUAUGUACCGAAUCGGGGCCGGGGCCGGCCGGGGAAAGUAUUAUGUUACGCCGUUCGGAUCUGCACUUCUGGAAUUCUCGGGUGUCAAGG	-0.0383

Study 2 — method: protein-binding microarray; molecule type: double-stranded DNA, one strand shown; sample: in vitro; tested at: not given; reading: higher = stronger binding
Target: TATA-box-binding protein 1 (TBP1, Arabidopsis thaliana, UniProt P28147, residues 1-200, full length assumed)
Notes: k-mer, scored over probes, only values ≥0.25
Residues (chain): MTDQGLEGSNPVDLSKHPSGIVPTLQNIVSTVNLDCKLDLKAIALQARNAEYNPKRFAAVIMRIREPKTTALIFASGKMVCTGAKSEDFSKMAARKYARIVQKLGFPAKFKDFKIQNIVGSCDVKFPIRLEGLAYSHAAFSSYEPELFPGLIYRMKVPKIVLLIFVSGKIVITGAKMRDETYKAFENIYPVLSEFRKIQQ
Sequence	E-score
AGTATAC	0.278
AATTATG	0.323
AATAAAT	0.438
ACATGTA	0.262
AAATAAC	0.272
AAATAAG	0.344
ATATAAG	0.478
TATAGCA	0.257
AGCATAT	0.348
AAATATC	0.275
AATGTTA	0.301
ATAAGGA	0.328
ATATTGC	0.328
TAACTTA	0.267
CTATATC	0.316
CTTAAAA	0.378
TGTTAAA	0.312
CATTTTA	0.344
ATTAATG	0.345
TAAATTA	0.409
AAAATAT	0.393
GAATAAA	0.395

Study 3 — method: protein-binding microarray; molecule type: double-stranded DNA, one strand shown; sample: in vitro; tested at: 250 nM; notes: 60-bp whole probe; with: salmon DNA 0.4 mg/ml; reference: random background probes; reading: higher = stronger binding; shared flanks, not repeated: GCCTAGCAC … GTCTTGATTCGCTTGACGCTGCTG
Target: Interferon regulatory factor 7, full length, phosphomimetic (IRF7, Homo sapiens, UniProt Q92985, residues 1-503, S101K/S471D/S472D/S475D/S476D/S477D/S483D/S484D/S487D)
Sequence of UniProt Q92985 (whole entry, unmodified, looked up): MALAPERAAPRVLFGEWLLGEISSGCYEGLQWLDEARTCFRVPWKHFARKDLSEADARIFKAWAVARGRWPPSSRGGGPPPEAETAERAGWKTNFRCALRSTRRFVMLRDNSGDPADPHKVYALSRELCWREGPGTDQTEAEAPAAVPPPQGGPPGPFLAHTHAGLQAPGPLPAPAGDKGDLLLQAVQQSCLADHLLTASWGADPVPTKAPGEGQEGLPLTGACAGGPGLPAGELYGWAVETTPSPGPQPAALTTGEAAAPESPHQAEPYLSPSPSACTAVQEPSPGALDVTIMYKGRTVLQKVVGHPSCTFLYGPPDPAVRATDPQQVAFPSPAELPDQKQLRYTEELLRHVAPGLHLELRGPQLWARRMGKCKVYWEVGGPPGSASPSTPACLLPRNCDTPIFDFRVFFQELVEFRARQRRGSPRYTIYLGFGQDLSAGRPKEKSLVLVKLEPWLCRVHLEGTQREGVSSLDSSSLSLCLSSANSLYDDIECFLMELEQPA
Sequence	log fluorescence [z-score]
GACGATAGCAGTTTCGAGACGTGCTAG	3.23
CTCCTCTCTGGGTCAAAGGTGTGCTAG	0.196
GACGATTCCCTTTTCCTGACGTGCTAG	1.37
CGAGATCTCCGAGATGCCTTCGTGCTA	-3.03e-05
GACGGTCTCCTTCTCCTGATGTGCTAG	-0.00249
TTAGGATTCGACTATCGGTTAGTGCTA	0.753
CTACGTCTGATTTTGCTTTCGTGCTAG	0.292
GTAGATTTCGGGTATCGATTAGTGCTA	1.28
TTAGAACAGAGTCTCGATTAGTGCTAG	1.21
GACGGACCGGGTCTCGGGACGTGCTAG	0.454
TTAGTTTTCCTTTTCCTTTAGTGCTAG	5.61
GACGGACTTGACTTTCGGGACGTGCTA	-0.0478
TCATCTTTATGTACTCTCACTGTGCTA	0.703
TTAGGTTTAGACACTGGGTTAGTGCTA	-0.141
TCAAATTTACTTTCTACACTGTGCTAG	0.559
TCAAAGTTCTTTTTTTCACTGTGCTAG	0.558
TCCTTTATGTCCTGTCTACATGTGCTA	0.653
TCATTTCTCATTCGTCATACTGTGCTA	2.86
TCATTTTTCTAACCCATACTGTGCTAG	1.32
TGAAGAATGCCTTTAATAAGGTGCTAG	-0.586
CACGATTCCAGTTTCGAGACGTGCTAG	5.09

Study 4 — method: RNA Bind-n-Seq; molecule type: RNA; sample: in vitro; tested at: 365 nM; reference: no-protein control; reading: higher = stronger binding
Target: RNA binding protein fox-1 homolog 2, RRM domain, GST-SBP tag (RBFOX2, Homo sapiens, UniProt O43251-10, residues 100-194)
Notes: natural RNA segment, single round, ends assumed
Construct (chain): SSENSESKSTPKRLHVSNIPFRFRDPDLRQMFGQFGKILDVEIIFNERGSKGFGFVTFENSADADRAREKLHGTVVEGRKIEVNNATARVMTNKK
Sequence	RBNS enrichment (R)
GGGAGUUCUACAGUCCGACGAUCAUCGUUUGGAACCUGGUAUUUCUGUUGUGUUCUUGGCAGUGCAUAGGAACCCAGCCUCCUGUGUUUUGACCCUCCUGCAGGCACUGUGGGACUCGAGGGCAGCAGAUCCAUGGAAUUCUCGGGUGCCAA	0.629
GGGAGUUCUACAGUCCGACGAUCUAUGUUCAAUAUUUGUAUUUGUGUUCUCUUUUGUUAUUUUUAAUUAGGGUAUAUGAAUAUUUUGCAAUAAUUUUAAUAAUUAUUAAGCUGUUUGAAGGAAAGAAUAUGGAUGGAAUUCUCGGGUGCCAA	0.875
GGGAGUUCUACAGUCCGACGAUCGCGAGUGAUUGUGAAAGCACCUCUGUUGUAGUGGGUAGGUGCCUUUCUCAUGAGCGGGGAGCAUAACUGUUAGUUAUUUGUGGUGAUUAUGGCAGAUUUCAAGAUCACGUUGGAAUUCUCGGGUGCCAA	0.981
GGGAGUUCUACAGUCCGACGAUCGCAGUCAACUCCAUGCUGUGCAUGUUUCCCACCCCGUGCCUUAGAAGCUGAAGGUGCUUUUUCAUCAGAACCUUAACAUGGCUGUUGAUGGUACCCUGGCUGCAGCCCAGUGGAAUUCUCGGGUGCCAA	2.15
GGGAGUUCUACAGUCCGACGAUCGAAUUUAUAAAAUGUGUAUUGCUCAAAAAAAAAAAAAAGGUUUGCAAAUAUUUGCACAUAAGAUCUUCACUGUUCAUUUCCAGUGAGUGUGUUUGCAGACUAAACACAAGUGGAAUUCUCGGGUGCCAA	1.02
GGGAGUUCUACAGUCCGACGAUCUUCUACAUUGUGACUUGUUUUACUUUAAAAGGGGAUAAACAAAUUUAUAGCAACUAUAAAGUAUCAAUAAUUUUAAAUACUCAUCUCUCUUUUACUAAGAAGGGAUUUUUUGGAAUUCUCGGGUGCCAA	0.573
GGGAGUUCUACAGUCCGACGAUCUCAGGGGAGAAGGAGGCCACUGGAAAAUUAUUUCCCUAAGUGCAGGCUGUUGACUGCGUAUGCCAAAAAGGGACAGGAGGCAUGGGAUAGCAGGUCUGGUGACACAGCUAUGGAAUUCUCGGGUGCCAA	1.7
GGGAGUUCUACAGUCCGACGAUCGUCUUUAUGGAAGGCACUUGUUACAGUAUUUGCCCAUUGUACAGAGCAAUGCUACAUUGUUGUAAAAAGAAUUGCUAUUGUAAAAAAGCACUGUGUGACUUUGUGAAGGAUGGAAUUCUCGGGUGCCAA	0.536
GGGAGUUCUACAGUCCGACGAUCCAUUUCCUAGGAACGGUCUCUGACUCCUGGACAACUACUCCUGUAUCGGCUCUGGCUCCCCGGAACCAUUAGAGACUAACUGUUGUUUCCACAAAGGAGGGCUGAGAGUGUGGAAUUCUCGGGUGCCAA	0.245
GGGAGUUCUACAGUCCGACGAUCCCCUUACCCCUGCUGCUUCAGGGUUUUUCCCCGGCGGGUUGGGAGGGGCAGGAGGUGGGGUGGAAAUAGGGUGGGCUCCUUUCCUCAGGUAGAGUGGGGGGCCAAAACCUUGGAAUUCUCGGGUGCCAA	0.361
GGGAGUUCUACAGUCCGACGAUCUGGAAAACCAAAUUUGUAAUAUCAUUGUAUUUUUUAUUAAAAGUUUUGUAAUAAAUUUCUAAAUUAUCUUCUGGUGUGGGACUUUAACAAACAUCCUAUUUUUAGUUUCAUGGAAUUCUCGGGUGCCAA	1.38
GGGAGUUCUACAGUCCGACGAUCCCACCCAUCCACUCCUUGCCAAGUGUUACCCAGAUGGUGGAGGAUGUGAAGGGAUUGCACCAAGCCACAUUCACUCUCUCUGUGGCCUUUCUUCCUCUGGGCAAAGAAGGUGGAAUUCUCGGGUGCCAA	0.43

Repeated from above (study 3):
Sequence	log fluorescence [z-score]
TTAGGATTCGACTATCGGTTAGTGCTA	0.753
CTACGTCTGATTTTGCTTTCGTGCTAG	0.292
GTAGATTTCGGGTATCGATTAGTGCTA	1.28
